Assay results collected from several papers.
Lines come from different studies, so protocols differ.
T1: spt16/pob3 C-terminal deleted 1-937 (Schizosaccharomyces pombe); chain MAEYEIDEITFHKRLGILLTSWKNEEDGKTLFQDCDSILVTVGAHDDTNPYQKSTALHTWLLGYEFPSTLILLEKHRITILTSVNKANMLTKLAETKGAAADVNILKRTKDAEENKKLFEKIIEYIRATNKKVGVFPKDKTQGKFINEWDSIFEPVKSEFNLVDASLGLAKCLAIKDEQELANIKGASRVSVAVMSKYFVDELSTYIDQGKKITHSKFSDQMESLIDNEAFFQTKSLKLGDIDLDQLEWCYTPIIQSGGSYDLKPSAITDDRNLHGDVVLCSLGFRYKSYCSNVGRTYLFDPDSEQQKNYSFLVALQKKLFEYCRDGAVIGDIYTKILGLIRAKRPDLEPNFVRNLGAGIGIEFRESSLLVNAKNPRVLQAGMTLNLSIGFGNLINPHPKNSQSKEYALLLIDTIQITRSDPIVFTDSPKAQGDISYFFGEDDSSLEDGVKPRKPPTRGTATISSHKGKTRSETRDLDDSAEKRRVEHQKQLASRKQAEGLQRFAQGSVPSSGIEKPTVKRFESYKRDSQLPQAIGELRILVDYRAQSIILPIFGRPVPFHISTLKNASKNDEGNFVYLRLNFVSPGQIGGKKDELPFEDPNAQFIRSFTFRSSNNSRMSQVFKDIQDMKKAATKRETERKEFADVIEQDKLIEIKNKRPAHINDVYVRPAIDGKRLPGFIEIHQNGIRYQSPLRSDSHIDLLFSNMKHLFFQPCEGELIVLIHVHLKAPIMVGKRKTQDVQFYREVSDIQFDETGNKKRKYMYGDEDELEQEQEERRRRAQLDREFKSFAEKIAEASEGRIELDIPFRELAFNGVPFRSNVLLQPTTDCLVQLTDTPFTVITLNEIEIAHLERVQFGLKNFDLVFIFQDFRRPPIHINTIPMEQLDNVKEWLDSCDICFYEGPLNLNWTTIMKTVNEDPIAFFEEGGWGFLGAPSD; chain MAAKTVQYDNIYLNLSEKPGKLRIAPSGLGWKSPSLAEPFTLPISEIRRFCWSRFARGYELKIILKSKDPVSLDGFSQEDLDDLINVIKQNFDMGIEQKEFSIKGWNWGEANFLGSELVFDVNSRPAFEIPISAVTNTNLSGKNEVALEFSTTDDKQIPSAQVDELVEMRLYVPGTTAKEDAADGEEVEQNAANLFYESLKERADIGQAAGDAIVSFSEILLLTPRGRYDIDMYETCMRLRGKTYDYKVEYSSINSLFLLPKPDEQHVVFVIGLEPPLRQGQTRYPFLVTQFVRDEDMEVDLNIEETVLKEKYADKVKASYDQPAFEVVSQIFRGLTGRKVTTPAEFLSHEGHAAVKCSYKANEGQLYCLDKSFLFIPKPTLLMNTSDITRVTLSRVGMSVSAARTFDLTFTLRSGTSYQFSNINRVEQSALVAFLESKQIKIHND
B1: ATG9 2-318 (Saccharomyces cerevisiae, UniProt Q12142); sequence looked up; chain ERDEYQLPNSHGKNTFLSRIFGLQSDEVNPSLNSQEMSNFPLPDIERGSSLLHSTNDSREDVDENDLRVPESDQGTSTEEEDEVDEEQVQAYAPQISDGLDGDHQLNSVTSKENVLETEKSNLERLVEGSTDDSVPKVGQLSSEEEEDNEFINNDGFDDDTPLFQKSKIHEFSSKKSNTIEDGKRPLFFRHILQNNRPQRDTQKLFTSSNAIHHDKDKSANNGPRNINGNQKHGTKYFGSATQPRFTGSPLNNTNRFTKLFPLRKPNLLSNISVLNNTPEDRINTLSVKERALWKWANVENLDIFLQDVYNYYLGNG
B2: KtrC (Bacillus subtilis, UniProt P39760); sequence looked up; chain MKKEFAVIGLGRFGGSICKALSEEGVEVMAMDIDEDKVNEYAKIASHAVIGDSTDESVLKNLGLRNFDHVIVAIGENIQASILTTLILKELGVHTITVKAQNDYHEKVLSKIGADHIVHPERDMAKRIAHNIVSNNVLDYLELSEEHSLVEIVANSRLAGNTLLDLDIRAKYGINIVAIKRGKEVIVSPLATEVIHQEDILIVIGSVTDISRFEKRVLHTK
B3: CLNS1A 2-237 (Homo sapiens, UniProt P54105); sequence looked up; chain SFLKSFPPPGPAEGLLRQQPDTEAVLNGKGLGTGTLYIAESRLSWLDGSGLGFSLEYPTISLHALSRDRSDCLGEHLYVMVNAKFEEESKEPVADEEEEDSDDDVEPITEFRFVPSDKSALEAMFTAMCECQALHPDPEDEDSDDYDGEEYDVEAHEQGQGDIPTFYTYEEGLSHLTAEGQATLERLEGMLSQSVSSQYNMAGVRTEDSIRDYEDGMEVDTTPTVAGQFEDADVDH
B4: TIM10 8-93 (Saccharomyces cerevisiae, UniProt P87108); sequence looked up; chain GGQPQLSSQQKIQAAEAELDLVTDMFNKLVNNCYKKCINTSYSEGELNKNESSCLDRCVAKYFETNVQVGENMQKMGQSFNAAGKF
B5: bcsC 24-709 (Escherichia coli, UniProt P37650); chain APTAQQQLLEQVRLGEATHREDLVQQSLYRLELIDPNNPDVVAARFRSLLRQGDIDGAQKQLDRLSQLAPSSNAYKSSRTTMLLSTPDGRQALQQARLQATTGHAEEAVASYNKLFNGAPPEGDIAVEYWSTVAKIPARRGEAINQLKRINADAPGNTGLQNNLALLLFSSDRRDEGFAVLEQMAKSNAGREGASKIWYGQIKDMPVSDASVSALKKYLSIFSDGDSVAAAQSQLAEQQKQLADPAFRARAQGLAAVDSGMAGKAIPELQQAVRANPKDSEALGALGQAYSQKGDRANAVANLEKALALDPHSSNNDKWNSLLKVNRYWLAIQQGDAALKANNPDRAERLFQQARNVDNTDSYAVLGLGDVAMARKDYPAAERYYQQTLRMDSGNTNAVRGLANIYRQQSPEKAEAFIASLSASQRRSIDDIERSLQNDRLAQQAEALENQGKWAQAAALQRQRLALDPGSVWITYRLSQDLWQAGQRSQADTLMRNLAQQKSNDPEQVYAYGLYLSGHDQDRAALAHINSLPRAQWNSNIQELVNRLQSDQVLETANRLRESGKEAEAEAMLRQQPPSTRIDLTLADWAQQRRDYTAARAAYQNVLTREPANADAILGLTEVDIAAGDKAAARSQLAKLPATDNASLNTQRRVALAQAQLGDTAAAQRTFNKLIPQAKSQPPSME
B6: tnsD 1-318 K235A/H236D (Escherichia coli, UniProt P13991); sequence looked up; chain MRNFPVPYSNELIYSTIARAGVYQGIVSPKQLLDEVYGNRKVVATLGLPSHLGVIARHLHQTGRYAVQQLIYEHTLFPLYAPFVGKERRDEAIRLMEYQAQGAVHLMLGVAASRVKSDNRFRYCPDCVALQLNRYGEAFWQRDWYLPALPYCPKHGALVFFDRAVDDHRHQFWALGHTELLSDYPKDSLSQLTALAAYIAPLLDAPRAQELSPSLEQWTLFYQRLAQDLGLTKSADIRHDLVAERVRQTFSDEALEKLDLKLAENKDTCWLKSIFRKHRKAFSYLQHSIVWQALLPKLTVIEALQQASALTEHSITTR
B7: dnaA/forked oriC DNA ATP-bound (Escherichia coli); sequence looked up; chain MSLSLWQQCLARLQDELPATEFSMWIRPLQAELSDNTLALYAPNRFVLDWVRDKYLNNINGLLTSFCGADAPQLRFEVGTKPVTQTPQAAVTSNVAAPAQVAQTQPQRAAPSTRSGWDNVPAPAEPTYRSNVNVKHTFDNFVEGKSNQLARAAARQVADNPGGAYNPLFLYGGTGLGKTHLLHAVGNGIMARKPNAKVVYMHSERFVQDMVKALQNNAIEEFKRYYRSVDALLIDDIQFFANKERSQEEFFHTFNALLEGNQQIILTSDRYPKEINGVEDRLKSRFGWGLTVAIEPPELETRVAILMKKADENDIRLPGEVAFFIAKRLRSNVRELEGALNRVIANANFTGRAITIDFVREALRDLLALQEKLVTIDNIQKTVAEYYKIKVADLLSKRRSRSVARPRQMAMALAKELTNHSLPEIGDAFGGRDHTTVLHACRKIEQLREESHDIKEDFSNLIRTLSS
B8: Spt6 1-335 (Saccharomyces cerevisiae, UniProt P23615); sequence looked up; chain MEETGDSKLVPRDEEEIVNDNDETKAPSEEEEGEDVFDSSEEDEDIDEDEDEARKVQEGFIVNDDDENEDPGTSISKKRRKHKRREREEDDRLSEDDLDLLMENAGVERTKASSSSGKFKRLKRVGDEGNAAESESDNVAASRQDSTSKLEDFFSEDEEEEESGLRNGRNNEYGRDEEDHENRNRTADKGGILDELDDFIEDDEFSDEDDETRQRRIQEKKLLREQSIKQPTQITGLSSDKIDEMYDIFGDGHDYDWALEIENEELENGNDNNEAEEEEIDEETGAIKSTKKKISLQDIYDLEDLKKNLMTEGDMKIRKTDIPERYQELRAGITD
B9: SNAPC1 1-268 (Homo sapiens, UniProt Q16533); chain MGTPPGLQTDCEALLSRFQETDSVRFEDFTELWRNMKFGTIFCGRMRNLEKNMFTKEALALAWRYFLPPYTFQIRVGALYLLYGLYNTQLCQPKQKIRVALKDWDEVLKFQQDLVNAQHFDAAYIFRKLRLDRAFHFTAMPKLLSYRMKKKIHRAEVTEEFKDPSDRVMKLITSDVLEEMLNVHDHYQNMKHVISVDKSKPDKALSLIKDDFFDNIKNIVLEHQQWHKDRKNPSLKSKTNDGEEKMEGNSQETERCERAESLAKIKSK
B10: CCDC32 V95S/M100S/L101S/L104S (Mus musculus, UniProt Q8BS39); chain MKMFESLDSSATKSGRDLWAEICSCLPSPAQEDVSDNAFSDSFMDSHPAGESHTAAADSAVQPAGKPWAPLHDSEVYLASLEKKLRRIKGLNEESTSKDSSRTSAQAKKECWDRFLQEKLASEFFVDGLDSDERTLEHFKRWLQPDKVAISTEEVQFLIPPESQAEKPEAGDKPAAAEQ
B11: HIF1A 394-574 (Homo sapiens, UniProt Q16665); sequence looked up; chain PDALTLLAPAAGDTIISLDFGSNDTETDDQQLEEVPLYNDVMLPSPNEKLQNINLAMSPLPTAETPKPLRSSADPALNQEVALKLEPNPESLELSFTMPQIQDQTPSPSDGSTRQSSPEPNSPSEYCFYVDSDMVNEFKLELVEKLFAEDTEAKNPFSTQDTDLDLEMLAPYIPMDDDFQL
Chain of UniProt Q92966 (whole entry, looked up): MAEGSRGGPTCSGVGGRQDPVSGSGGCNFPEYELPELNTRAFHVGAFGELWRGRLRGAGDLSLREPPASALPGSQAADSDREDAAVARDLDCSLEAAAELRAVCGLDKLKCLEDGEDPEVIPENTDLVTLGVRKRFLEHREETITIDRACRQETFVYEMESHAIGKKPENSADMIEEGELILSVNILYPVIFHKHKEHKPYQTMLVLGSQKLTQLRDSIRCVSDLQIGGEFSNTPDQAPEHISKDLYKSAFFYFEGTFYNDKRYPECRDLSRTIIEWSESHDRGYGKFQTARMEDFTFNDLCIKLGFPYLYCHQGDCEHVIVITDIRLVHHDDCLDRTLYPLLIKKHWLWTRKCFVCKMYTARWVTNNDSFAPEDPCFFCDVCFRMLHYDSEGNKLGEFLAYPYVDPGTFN
Chain of UniProt P35820 (whole entry, unmodified, looked up): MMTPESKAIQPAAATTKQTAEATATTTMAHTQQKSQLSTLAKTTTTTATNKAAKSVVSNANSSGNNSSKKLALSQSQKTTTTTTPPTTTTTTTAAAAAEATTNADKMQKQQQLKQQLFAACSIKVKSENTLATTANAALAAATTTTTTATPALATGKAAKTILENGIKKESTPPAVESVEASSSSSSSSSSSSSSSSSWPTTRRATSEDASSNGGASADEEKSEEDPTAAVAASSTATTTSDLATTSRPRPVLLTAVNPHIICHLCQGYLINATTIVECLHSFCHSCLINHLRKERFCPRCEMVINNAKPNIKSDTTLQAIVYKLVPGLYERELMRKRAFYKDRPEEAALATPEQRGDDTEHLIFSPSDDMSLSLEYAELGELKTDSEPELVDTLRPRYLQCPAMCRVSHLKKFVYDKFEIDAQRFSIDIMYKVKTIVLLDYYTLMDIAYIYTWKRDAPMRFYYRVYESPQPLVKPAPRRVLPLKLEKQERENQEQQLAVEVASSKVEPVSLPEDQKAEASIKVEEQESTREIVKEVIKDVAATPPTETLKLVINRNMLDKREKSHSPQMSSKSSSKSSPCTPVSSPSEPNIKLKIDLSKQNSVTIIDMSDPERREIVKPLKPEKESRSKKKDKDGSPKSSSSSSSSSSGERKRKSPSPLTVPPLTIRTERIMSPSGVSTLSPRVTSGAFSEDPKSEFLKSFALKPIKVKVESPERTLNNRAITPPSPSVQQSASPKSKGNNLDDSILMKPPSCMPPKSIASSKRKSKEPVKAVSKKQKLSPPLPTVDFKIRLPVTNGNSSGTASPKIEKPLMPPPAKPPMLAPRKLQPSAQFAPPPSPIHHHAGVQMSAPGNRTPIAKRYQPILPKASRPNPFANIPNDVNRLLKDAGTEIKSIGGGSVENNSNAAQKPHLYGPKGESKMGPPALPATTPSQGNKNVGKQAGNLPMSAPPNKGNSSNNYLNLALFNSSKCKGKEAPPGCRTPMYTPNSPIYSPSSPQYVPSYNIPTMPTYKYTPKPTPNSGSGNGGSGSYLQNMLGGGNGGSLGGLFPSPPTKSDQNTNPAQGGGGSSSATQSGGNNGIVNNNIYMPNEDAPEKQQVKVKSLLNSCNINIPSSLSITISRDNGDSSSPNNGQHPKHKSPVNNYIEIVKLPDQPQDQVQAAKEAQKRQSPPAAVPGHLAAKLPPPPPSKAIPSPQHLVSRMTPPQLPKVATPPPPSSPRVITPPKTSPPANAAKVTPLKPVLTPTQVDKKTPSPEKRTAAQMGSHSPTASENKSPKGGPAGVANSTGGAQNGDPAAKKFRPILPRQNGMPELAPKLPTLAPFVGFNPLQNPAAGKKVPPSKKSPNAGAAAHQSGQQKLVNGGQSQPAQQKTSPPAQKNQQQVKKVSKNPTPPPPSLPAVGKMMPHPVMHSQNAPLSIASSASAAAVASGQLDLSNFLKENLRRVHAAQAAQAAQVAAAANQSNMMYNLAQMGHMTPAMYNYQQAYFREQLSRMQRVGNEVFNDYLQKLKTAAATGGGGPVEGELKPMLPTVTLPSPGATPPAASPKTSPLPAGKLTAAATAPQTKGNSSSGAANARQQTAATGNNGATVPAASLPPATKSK
Chain of UniProt O74700 (whole entry, looked up): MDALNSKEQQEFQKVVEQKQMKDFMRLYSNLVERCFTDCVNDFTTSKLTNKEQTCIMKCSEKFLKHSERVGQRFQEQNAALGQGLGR
Chain of UniProt Q9VB08 (whole entry, unmodified, looked up): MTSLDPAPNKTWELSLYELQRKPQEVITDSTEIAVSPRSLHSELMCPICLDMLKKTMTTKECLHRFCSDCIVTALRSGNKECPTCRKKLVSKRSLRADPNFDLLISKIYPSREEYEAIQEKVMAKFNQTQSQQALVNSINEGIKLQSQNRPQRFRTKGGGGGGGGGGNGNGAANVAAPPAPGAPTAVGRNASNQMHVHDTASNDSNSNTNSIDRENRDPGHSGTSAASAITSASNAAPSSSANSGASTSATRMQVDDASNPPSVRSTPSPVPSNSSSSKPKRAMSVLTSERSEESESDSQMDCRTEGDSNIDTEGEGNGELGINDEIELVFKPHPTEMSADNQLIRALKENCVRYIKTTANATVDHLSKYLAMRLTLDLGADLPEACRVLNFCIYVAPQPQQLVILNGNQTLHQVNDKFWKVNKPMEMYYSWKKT
Chain of UniProt Q06671 (whole entry, looked up): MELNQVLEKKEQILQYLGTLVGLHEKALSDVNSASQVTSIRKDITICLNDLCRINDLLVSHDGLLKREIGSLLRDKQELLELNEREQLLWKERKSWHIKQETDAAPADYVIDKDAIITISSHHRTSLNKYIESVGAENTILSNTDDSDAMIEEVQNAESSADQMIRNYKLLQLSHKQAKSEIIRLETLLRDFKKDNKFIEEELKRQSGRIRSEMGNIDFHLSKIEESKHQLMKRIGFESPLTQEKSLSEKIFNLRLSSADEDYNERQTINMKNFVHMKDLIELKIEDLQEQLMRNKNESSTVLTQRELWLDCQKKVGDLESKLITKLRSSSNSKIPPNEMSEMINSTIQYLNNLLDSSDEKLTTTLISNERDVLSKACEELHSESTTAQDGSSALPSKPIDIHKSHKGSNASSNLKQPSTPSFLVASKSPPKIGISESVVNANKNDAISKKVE
Chain of UniProt Q9GZT9 (whole entry, looked up): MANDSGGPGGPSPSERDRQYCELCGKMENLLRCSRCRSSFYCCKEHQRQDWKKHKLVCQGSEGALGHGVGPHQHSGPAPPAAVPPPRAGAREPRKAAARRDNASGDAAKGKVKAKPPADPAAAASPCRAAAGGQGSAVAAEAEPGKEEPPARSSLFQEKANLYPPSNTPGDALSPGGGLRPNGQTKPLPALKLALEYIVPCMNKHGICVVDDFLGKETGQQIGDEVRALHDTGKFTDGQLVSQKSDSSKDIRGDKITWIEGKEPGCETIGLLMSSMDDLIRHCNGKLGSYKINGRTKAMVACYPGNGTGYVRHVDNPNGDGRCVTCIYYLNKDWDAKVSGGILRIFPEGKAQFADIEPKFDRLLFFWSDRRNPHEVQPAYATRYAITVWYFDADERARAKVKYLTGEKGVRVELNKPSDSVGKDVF
Chain of UniProt P37652 (whole entry, looked up): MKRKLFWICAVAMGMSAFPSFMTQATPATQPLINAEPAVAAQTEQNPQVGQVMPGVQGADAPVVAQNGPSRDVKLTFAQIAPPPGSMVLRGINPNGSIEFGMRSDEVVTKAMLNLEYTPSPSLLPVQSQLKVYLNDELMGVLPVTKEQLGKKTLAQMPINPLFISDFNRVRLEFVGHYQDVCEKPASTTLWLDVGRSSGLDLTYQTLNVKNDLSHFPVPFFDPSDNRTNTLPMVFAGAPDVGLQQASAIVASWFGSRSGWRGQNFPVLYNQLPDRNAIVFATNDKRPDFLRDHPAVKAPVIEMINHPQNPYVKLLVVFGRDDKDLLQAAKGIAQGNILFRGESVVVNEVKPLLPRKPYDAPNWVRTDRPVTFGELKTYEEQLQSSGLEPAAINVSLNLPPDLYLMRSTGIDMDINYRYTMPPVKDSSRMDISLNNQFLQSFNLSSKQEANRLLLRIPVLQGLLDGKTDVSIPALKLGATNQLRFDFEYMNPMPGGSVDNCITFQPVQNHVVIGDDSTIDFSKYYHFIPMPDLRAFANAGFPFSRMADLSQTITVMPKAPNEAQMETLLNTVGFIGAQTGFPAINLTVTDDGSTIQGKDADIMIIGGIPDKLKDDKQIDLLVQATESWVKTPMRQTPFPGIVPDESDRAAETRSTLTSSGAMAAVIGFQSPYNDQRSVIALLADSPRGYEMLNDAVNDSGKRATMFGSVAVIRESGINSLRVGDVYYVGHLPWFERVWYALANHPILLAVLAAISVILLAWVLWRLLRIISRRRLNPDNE
Chain of UniProt P05846 (whole entry, unmodified, looked up): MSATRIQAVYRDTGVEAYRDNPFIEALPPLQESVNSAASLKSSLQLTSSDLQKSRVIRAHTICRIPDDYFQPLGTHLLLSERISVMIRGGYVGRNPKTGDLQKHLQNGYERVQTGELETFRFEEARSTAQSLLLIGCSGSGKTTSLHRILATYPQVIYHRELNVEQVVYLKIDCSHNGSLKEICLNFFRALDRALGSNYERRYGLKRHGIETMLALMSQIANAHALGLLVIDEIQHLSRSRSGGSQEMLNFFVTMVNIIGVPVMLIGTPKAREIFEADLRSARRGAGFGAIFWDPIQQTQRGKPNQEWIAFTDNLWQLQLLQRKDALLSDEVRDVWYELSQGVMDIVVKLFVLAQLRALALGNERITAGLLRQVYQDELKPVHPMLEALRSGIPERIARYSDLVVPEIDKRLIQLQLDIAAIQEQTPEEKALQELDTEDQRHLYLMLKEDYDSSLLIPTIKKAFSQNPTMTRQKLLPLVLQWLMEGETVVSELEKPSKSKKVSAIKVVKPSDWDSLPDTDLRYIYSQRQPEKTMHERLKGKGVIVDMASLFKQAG

Substance | partner | method | form | notes | added | binding
B1 (ATG9 2-318) | ATG23 (Saccharomyces cerevisiae, UniProt Q06671) | pull-down | – | – | – | binds
B2 (KtrC) | ktrA (Bacillus subtilis, UniProt O32080) | pull-down | – | without c-di-AMP, in vitro | – | binds
abo1 (Schizosaccharomyces pombe, UniProt O14114) | T1, spt16/pob3 C-terminal deleted 1-937 (Schizosaccharomyces pombe) | native gel | – | – | – | binds
GEVAKAAKVKC (IL1RAP 339-348 (Homo sapiens); cyclic, C-terminal amide, acetylated N-terminus) | IL1RL1/IL33 ST2 , IL-33 19-328 | pull-down | peptide | – | – | binds
RAD52 (Homo sapiens, UniProt P43351) | SETX (Homo sapiens, UniProt Q7Z333) | pull-down | – | – | – | binds
B3 (CLNS1A 2-237) | PRMT5/WDR77 full length, octamer (Homo sapiens) | SEC | – | – | – | binds
AAAAAAGDSDSWDADAFSVEDPVRKVGGGGTAGGDRWEGEDEDEDVKD (EIF3J/GST 3-50 (Homo sapiens); Alexa Fluor 546 label; sequence looked up) | eIF3 octamer PCI/MPN core 5-654 (Homo sapiens, UniProt Q14152) | EMSA | – | – | – | binds
B4 (TIM10 8-93) | TIM9 1-87 (Saccharomyces cerevisiae, UniProt O74700) | SEC | – | – | – | binds
B5 (bcsC 24-709) | bcsB 26-779 (Escherichia coli, UniProt P37652) | cryo-EM | – | – | – | binds
B6 (tnsD 1-318 K235A/H236D) | tnsC 1-503 (Escherichia coli, UniProt P05846) | dynamic light scattering | – | – | ATP | binds
Sce (Drosophila melanogaster, UniProt Q9VB08) | Psc (Drosophila melanogaster, UniProt P35820) | co-IP | – | – | – | binds
B7 (dnaA/forked oriC DNA ATP-bound) | dnaB (Escherichia coli, UniProt P0ACB0) | pull-down | – | – | – | binds
B8 (Spt6 1-335) | SPN1 (Saccharomyces cerevisiae, UniProt Q06505) | NMR titration | – | – | – | binds
B9 (SNAPC1 1-268) | SNAPC3 (Homo sapiens, UniProt Q92966) | cryo-EM | – | – | – | binds
B10 (CCDC32 V95S/M100S/L101S/L104S) | AP-2 core (Mus musculus) | pull-down | – | – | – | binds
B11 (HIF1A 394-574) | EGLN1 181-426 (Homo sapiens, UniProt Q9GZT9) | NMR titration | – | – | – | binds

A few entries again:
Substance | partner | method | form | notes | added | binding
B5 (bcsC 24-709) | bcsB 26-779 (Escherichia coli, UniProt P37652) | cryo-EM | – | – | – | binds
B10 (CCDC32 V95S/M100S/L101S/L104S) | AP-2 core (Mus musculus) | pull-down | – | – | – | binds
